Values quoted from earlier work as cited in several papers.
Numbered parts are unrelated; values within a part may stem from several laboratories. Several values in a cell are separate wells, animals, samples, runs or records.

Series 1 — organism: Toxoplasma gondii; read-out: parasite growth; concentration: concentration not given; setting: drug repurposing screen
Compound	activity class
COc1ccc([C@@H]2Sc3ccccc3N(CCN(C)C)C(=O)[C@@H]2OC(C)=O)cc1	inactive
Oc1ccc(/C=C/c2cc(O)cc(O)c2)cc1	inactive
CN1CCN(C2=Nc3cc(Cl)ccc3Nc3ccccc32)CC1	inactive
C[C@H]1O[C@H](O[C@H]2[C@H](O)[C@@H](O)[C@@H](O[C@H]3[C@H](O)[C@@H](O)C(O)O[C@@H]3CO)O[C@@H]2CO)[C@H](O)[C@@H](O)[C@@H]1N[C@H]1C=C(CO)[C@@H](O)[C@H](O)[C@H]1O (stereo partly shown)	inactive
CN1[C@@H]2CC[C@H]1C[C@@H](OC(=O)c1c[nH]c3ccccc13)C2	inactive
O=C(c1ccc(F)cc1)C1CCN(CCn2c(=S)[nH]c3ccccc3c2=O)CC1	inactive
COC(=O)C1=C(C)NC(C)=C(C(=O)OC)C1c1ccccc1[N+](=O)[O-]	inactive
CCOC(=O)[C@H](CCc1ccccc1)N[C@H]1CCc2ccccc2N(CC(=O)O)C1=O	inactive
CC(=O)N1CCN(c2ccc(OCC3COC(Cn4ccnc4)(c4ccc(Cl)cc4Cl)O3)cc2)CC1 (stereo not shown)	inactive
CN(C)CCCC1(c2ccc(F)cc2)OCc2cc(C#N)ccc21 (stereo not shown)	inactive
COC(=O)C[C@](O)(CCCC(C)(C)O)C(=O)O[C@@H]1C(OC)=C[C@]23CCCN2CCc2cc4c(cc2[C@H]13)OCO4	inactive

Series 2 — cell line: MCF7; concentration: concentration not given
Structure (SMILES): CCCCCCCCNC(C)C(O)c1ccc(SC(C)C)cc1 (stereo not shown)
assay	setting	scale	fold change
microarray, measured: SQSTM1 mRNA		baseline: DMSO	1.66
microarray, Connectivity Map, measured: LPIN1 mRNA	6 h	baseline: DMSO	2.35
microarray, Connectivity Map, measured: MAFF mRNA	6 h	baseline: DMSO	14
microarray, measured: CALHM2 mRNA (probe 57715_at)		baseline: vehicle (DMSO)	1.4

Single results of other studies
SMILES	tested on	assay	setting	quantity	value
CC(=O)Nc1c(C(C)=O)c(=O)n(C)c2nc(-c3ccc(Cl)cc3Cl)c(-c3ccc(Cl)cc3)cc12	SLC6A3	MSD Pharma Taiwan panel screen		Ki	799 nM
C=CC(=O)N1CCN(c2ncnc3c(F)c(-c4c(O)cccc4F)c(Cl)cc23)CC1	MIA PaCa-2	measured: phospho-ERK	3.33 µM	ERK phosphorylation	13.5% and 11.5%
Cc1nc(NCc2cnccn2)ncc1C(=O)N1CCC2(CCOCC2)C1	VNN1 (human)	cellular activity		IC50	3000 nM
CN(C)CC(c1ccc(O)cc1)C1(O)CCCCC1 (stereo not shown)	serotonin transporter			IC50	15 nM
O=C(O)[C@H]1[C@H](Cn2nnc3ccccc3c2=O)CC[C@@H]1C(=O)c1ccc(OCCC2CCOCC2)cc1	MMP12	biochemical activity		IC50	0.085 nM
C=CC(=O)N1CCN(c2nc(=O)n(-c3c(C)ccnc3C(C)C)c3nc(-c4c(O)cccc4F)c(F)cc23)[C@@H](C)C1	NCI-H358	measured: phospho-ERK	2 h	IC50	9 nM
O=C(O)c1cc(-c2ccc(C3CCNCC3)cc2)c2ccc(-c3ccc(C(F)(F)F)cc3)cc2c1	INSR	enzyme activity, Eurofins-Panlabs panel	concentration not given	IC50	4310 nM
